Experimental data pooled from the literature.
Numbered parts are unrelated; each lists some results of a single study. Substitutions count along the parent as printed.

Series 1
Target: Sal-like protein 4, full length isoform B (SALL4, Homo sapiens, UniProt Q9UJQ4-2, residues 1-616)
Technique: universal PBM
Form: double-stranded DNA, one strand shown
Matrix: in vitro
Concentration: not given
Setting: 8-mer, flanks averaged, mean of replicates
Reading: higher = stronger binding
| Strand | E-score |
| --- | --- |
| GCCGGACC | -0.394 |
| AGTGCAAT | 0.138 |
| CTCACACC | -0.152 |
| CATAGTAA | 0.296 |
| GATGTGGA | 0.0731 |
| CCTTTCCC | -0.0628 |
| ACTACACT | 0.133 |
| CCCGAGGC | -0.344 |
| AAGGTGGA | -0.15 |
| CCAGTCTA | -0.261 |
| CATCCCTA | -0.0531 |
| CTGTCGGA | -0.121 |
| ATACTGAG | 0.104 |
| CCCCAGGA | -0.372 |
| TAAGAATA | 0.18 |
| CCTAACGC | -0.0806 |
| ATGTGAAT | 0.196 |
| CAGATATC | 0.131 |
| AAAGCTAT | 0.221 |

Series 2
Target: Prothrombin, mature alpha-thrombin (F2, Homo sapiens, UniProt P00734)
Technique: aptamer microarray, sandwich
Form: DNA with 2'F-ANA
Matrix: in vitro
Concentration: 200 nM
Setting: whole 15-mer aptamer, many near background
Added: Cy3 exosite-II aptamer, 400 nM
Reading: higher = stronger binding
Strand: GGTTGGTGTGGTTGG
| Modification | mean fluorescence intensity |
| --- | --- |
| 2'F-ANA at 2 5 8 11 12 13 | 140 a.u. |
| 2'F-ANA at 2 3 5 6 7 8 9 11 12 15 | 189 a.u. |
| 2'F-ANA at 2 3 6 9 10 11 13 14 | 223 a.u. |
| 2'F-ANA at 1 8 11 12 15 | 393 a.u. |
| 2'F-ANA at 2 4 7 10 11 12 15 | 119 a.u. |
| 2'F-ANA at 1 4 5 6 12 15 | 91.3 a.u. |
| 2'F-ANA at 2 4 6 15 | 273 a.u. |
| 2'F-ANA at 1 3 4 7 9 11 14 15 | 62.1 a.u. |
| 2'F-ANA at 1 2 3 7 8 9 13 15 | 210 a.u. |
| 2'F-ANA at 5 6 11 12 13 14 | 105 a.u. |
| 2'F-ANA at 1 2 3 5 6 7 8 10 12 13 14 15 | 112 a.u. |
| 2'F-ANA at 1 2 5 7 8 9 10 11 12 14 | 46.9 a.u. |
| 2'F-ANA at 1 5 6 8 12 | 125 a.u. |
| 2'F-ANA at 1 2 5 6 8 9 10 11 12 | 63.7 a.u. |
| 2'F-ANA at 3 6 8 10 11 12 13 14 | 361 a.u. |
| 2'F-ANA at 5 7 10 14 15 | 44.4 a.u. |
| 2'F-ANA at 1 2 3 4 10 11 12 13 14 15 | 54.7 a.u. |
| 2'F-ANA at 2 3 11 12 13 | 953 a.u. |
| 2'F-ANA at 1 4 7 9 10 15 | 51.8 a.u. |
| 2'F-ANA at 1 9 10 13 | 70.1 a.u. |

Series 3
Target: CCNE2, cyclin fold, Cln2 fusion (human)
Technique: yeast growth competition, sequencing
Matrix: yeast
Setting: strong parent motif
Reference: not given
Reading: higher = stronger binding
Starting sequence: E2F1 docking peptide (human); PPVKRRLDFETDH; partner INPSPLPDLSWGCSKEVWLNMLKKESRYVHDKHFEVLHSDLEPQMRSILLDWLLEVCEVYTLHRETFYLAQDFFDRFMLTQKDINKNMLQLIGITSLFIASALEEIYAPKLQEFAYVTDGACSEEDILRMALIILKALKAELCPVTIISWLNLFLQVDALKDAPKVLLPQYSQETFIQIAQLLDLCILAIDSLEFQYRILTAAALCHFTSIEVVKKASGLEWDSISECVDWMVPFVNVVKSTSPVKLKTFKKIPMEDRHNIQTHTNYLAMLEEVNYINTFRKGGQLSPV
| Variant | normalised enrichment score |
| --- | --- |
| R5H | 0.0353 |
| F9H | 0.0205 |
| D8A | 5.57 |
| D12S | 6.29 |
| F9R | 0.323 |
| P2T | 5.52 |
| T11D | 4.84 |
| R5Y | -0.000545 |
| E10N | 6.75 |
| T11N | 5.7 |
| E10R | 6.1 |
| E10W | 4.81 |
| R5V | 0.268 |
| K4E | 0.636 |
| R5C | 0.438 |
| V3E | 0.677 |
| D12T | 6.07 |
| R6L | 1.74 |
| D8G | 3.32 |
| F9C | 0.423 |
| P2A | 5.21 |
| L7K | 0.162 |
| T11F | 6.08 |
| R6F | 1.49 |
| K4S | 3.41 |

Series 4
Target: Centromere-binding protein 1, full length, N-terminal tag (CBF1, Saccharomyces cerevisiae, UniProt P17106, residues 1-351)
Sequence of UniProt P17106 (whole entry, looked up): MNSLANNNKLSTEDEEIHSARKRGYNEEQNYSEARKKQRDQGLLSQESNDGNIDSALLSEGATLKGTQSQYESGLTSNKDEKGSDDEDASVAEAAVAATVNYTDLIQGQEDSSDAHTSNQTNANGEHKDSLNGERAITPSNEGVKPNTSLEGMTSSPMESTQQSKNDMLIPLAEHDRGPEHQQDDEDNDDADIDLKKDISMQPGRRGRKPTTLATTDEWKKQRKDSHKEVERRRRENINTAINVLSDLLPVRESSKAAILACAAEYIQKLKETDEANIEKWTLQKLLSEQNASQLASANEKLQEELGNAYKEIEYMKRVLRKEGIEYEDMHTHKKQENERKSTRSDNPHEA
Technique: protein-binding microarray
Form: double-stranded DNA, one strand shown
Matrix: in vitro
Concentration: 0.8 µM
Setting: whole 60-bp probe, no competitor
Reading: higher = stronger binding
All sequences stand within: … GTCTTGATTCGCTTGACGCTGCTG
| Strand | fluorescence intensity |
| --- | --- |
| GAAACCCTGACGCAACTCGTCACCACGCTGTTGTAG | 550 a.u. |
| TGTACGAAGCTATATCATGTATATATAGTAGTTAGG | 538 a.u. |
| GAAGATGAAGAACACCACCATTTCAGAAATTTTTAG | 482 a.u. |
| CTAATGCGGTGGTATCACATGAAGAGTAAATAATTC | 1110 a.u. |
| GAATCAAGGAATAAAGATATCACGTATACGGGATAG | 682 a.u. |
| GAAAAACAGTTGGGTCACATATAACTGAATACATAG | 538 a.u. |
| CTAACGATCACAGTTCACGACACATCACGTGTGTTC | 9710 a.u. |
| GAAGATATTACTGATCACATGACTGTCTAATTTTAG | 14700 a.u. |
| TGTACGAAGCTATATCTGATGACTATAGTAGTTAGG | 535 a.u. |
| GAAGAAGAAGATATGCGTGCGCACAGAATCGATTAG | 501 a.u. |
| TGTACGAAGCTATATCACCACTCTATAGTAGTTAGG | 506 a.u. |
| CTAGGTCGTATATATATCGTGCGTCTTCTTCCTTTC | 510 a.u. |
| GAAATGTACAATTGTTTCGTGATAATGTCTCTTTAG | 515 a.u. |
| CTAAAATGATATGATCAGTTGAGAAAAAGCTGGTTC | 572 a.u. |
| CTACAAAAAATTCATCACGAAGTGCTAAAGGAATTC | 554 a.u. |
| CTATTATGTCTGACCCACGTATTATGTGGAGCATTC | 533 a.u. |
| CTAGTGTCAAGACCCCACATGTATACATGGATATTC | 599 a.u. |
| GAATTCTTAGTATTCCATGTGTCTCGTGATACCTAG | 3760 a.u. |
| CTAAAAAAAAGAATACGCATGACAAATTTTGAATTC | 671 a.u. |

Excerpt of the above (series 4):
| Strand | fluorescence intensity |
| --- | --- |
| GAAAAACAGTTGGGTCACATATAACTGAATACATAG | 538 a.u. |
| CTAACGATCACAGTTCACGACACATCACGTGTGTTC | 9710 a.u. |
| GAAGATATTACTGATCACATGACTGTCTAATTTTAG | 14700 a.u. |
| TGTACGAAGCTATATCTGATGACTATAGTAGTTAGG | 535 a.u. |
| GAAGAAGAAGATATGCGTGCGCACAGAATCGATTAG | 501 a.u. |
| TGTACGAAGCTATATCACCACTCTATAGTAGTTAGG | 506 a.u. |
| CTAGGTCGTATATATATCGTGCGTCTTCTTCCTTTC | 510 a.u. |
